Assay results gathered from unrelated publications.
Compare with care: the assays were run in different laboratories. Numbers after ± are the reported error.
Cell line: MCF7

| SMILES | test | setting | IC50 |
| --- | --- | --- | --- |
| COc1ccnc(-c2cc(OC)ccn2)c1.Cc1ccc2c(Cl)cc(Cl)c([O-])c2n1.Cc1ccc2c(Cl)cc(Cl)c([O-])c2n1.[Co+2] | cell growth or viability, MTT | 48 h | 9.01 µM |
| O=C1Nc2ccccc2/C1=N/c1ccc(Cl)cc1Br | cell growth or viability, MTT | 48 h | 1.61 µM |
| NC(=O)c1ccc(-c2ccccc2Cl)c2c3c([nH]c12)CC[C@H](N)C3 | cell proliferation | 96 h | 0.0288 µM |
| Clc1ccc(C(Cn2ccnc2)OCc2ccc3ccccc3c2)c(Cl)c1 (stereo not drawn) | cell growth or viability, MTT | 24 h | 48.1 µM |
| CCOC(=O)/C=C1\S/C(=N\N=C\c2cccc3cc4ccccc4nc23)N(C)C1=O | cell growth or viability, MTT | 48 h | > 50 µM |
| C=CCc1c(O)cc2c(c1O)C(=O)CC(c1ccc(O)cc1)O2 (stereo not drawn) | cytotoxicity, MTT | 48 h, as reported | > 100 µM |
| C[C@@H]1CC[C@@H]([C@@](O)(CNCc2ccccc2F)COCc2ccccc2)[C@H](OCc2ccccc2)C1 | cell growth or viability, MTT | 72 h | 5.07 µM |
| CC1(C)[C@H](NC(=O)c2cnn(CCO)c2)C(C)(C)[C@H]1Oc1ccc(C#N)c(Cl)c1 | cell growth or viability, CCK-8 | 7 days | 4.2 µM |
| COc1ccc(C(=O)N2CCN(CC(OCc3ccc4ccccc4c3)c3ccc(Cl)cc3Cl)CC2)cc1 (stereo not drawn) | cell growth or viability, MTT | 24 h | 42.1 µM |
| Cc1nc(Nc2ccc3c(c2)/C(=C/c2ccccc2Cl)C(=O)N3C)c2ccccc2n1 | cell growth or viability, MTT |  | 6.91 µM |
| [Co+2].[O-]c1c(I)cc(I)c2cccnc12.[O-]c1c(I)cc(I)c2cccnc12.c1cnc2c(c1)ccc1cccnc12 | cell growth or viability, MTT | 48 h | 27 µM |
| CC(=O)[O][Pd][c]1ccccc1N1N=C(C)C(C)(C)C1=O.CC(=O)[O][Pd][c]1ccccc1N1N=C(C)C(C)(C)C1=O | cell growth or viability, MTT |  | 37.1 µM |
| C[n+]1c(/C=C/c2ccc(N(c3ccccc3)c3ccccc3)cc2)cc(/C=C2\Sc3ccccc3N2CCCN2CCCC2)c2ccccc21 | cell growth or viability, MTT | 36 h | 5.72 µM |
| O=C(CCc1ccccc1)N1C(=O)C2(NC(c3ccc(F)cc3)C3(C(=O)Nc4ccccc43)N2Cc2ccc(F)cc2)c2ccccc21 (stereo not drawn) | cell growth or viability, MTT | 48 h | 31.7 µM |
| CSc1sc2c3ccccc3c3ccccc3[n+]2c1C(=O)c1ccccc1 | cell growth or viability, MTT | 72 h | 17 µM |
| Cc1ccc2c(Cl)cc(Cl)c([O-])c2n1.Cc1ccc2c(Cl)cc(Cl)c([O-])c2n1.[Co+2].c1ccc2nc3c4cccnc4c4ncccc4c3nc2c1 | cell growth or viability, MTT | 48 h | 0.94 µM |
| CC(=O)N[C@@H](CCCNC(=N)N)C(=O)N[C@@H](Cc1c[nH]c2ccccc12)C(=O)N[C@@H](CCCNC(=N)N)C(=O)N[C@@H](Cc1c[nH]c2ccccc12)C(=O)N[C@@H](CCCNC(=N)N)C(=O)N[C@@H](Cc1c[nH]c2ccccc12)C(N)=O | cell viability | 48 h, dark | > 100 µM |
| Clc1ccc(COC(Cn2cnc3ccccc32)c2ccc(Cl)cc2Cl)cc1 (stereo not drawn) | cell growth or viability, MTT | 24 h | 47.2 µM |
| COc1ccc(C2CC(=O)c3c(cc(O)c(CC=C(C)C)c3O)O2)cc1 (stereo not drawn) | cytotoxicity, MTT | 48 h, sigmoidal fit | 109 µM |
| Cc1c(COc2cc(OCc3cccc(C#N)c3)c(CNC(CO)(CO)CO)cc2Cl)cccc1-c1cccc(OCCCCCCC(=O)NO)c1 | cell growth or viability, CCK-8 | 48 h | > 20 µM |

| SMILES | test | setting | IC50 |
| --- | --- | --- | --- |
| Nc1ncc(-c2nc(N3CCOCC3)nc(N3CCN(C(=O)CCC(=O)NCCCCCCNc4cccc5c4C(=O)N(C4CCC(=O)NC4=O)C5=O)CC3)n2)c(C(F)F)n1 (stereo not drawn) | inhibitor, In-Cell Western, item: Akt pSer473 | 2 h | 0.0673 µM |
| Cc1c(COc2cc(OCc3cccc(C#N)c3)c(CNC(CO)CO)cc2Cl)cccc1-c1cccc(OCCCCCCC(=O)NO)c1 | cell growth or viability, CCK-8 | 48 h | 17.9 µM |
| CN1C(=O)CS/C1=N\N=C\c1cccc2cc3ccccc3nc12 | cell growth or viability, MTT | 48 h | > 50 µM |
| COc1ccc(COC[C@](O)(CNCc2ccccc2)[C@@H]2CC[C@@H](C)C[C@H]2OCc2ccc(OC)cc2)cc1 | cell growth or viability, MTT | 72 h | 1.49 µM |
| Clc1ccc(COC(Cn2cncn2)c2ccc(Cl)cc2Cl)cc1 (stereo not drawn) | cell growth or viability, MTT | 24 h | 45.6 µM |
| C#CCNC(=O)[C@@]1(C)C(=O)CC[C@]2(C)[C@H]3C(=O)C=C4[C@@H]5[C@@H](C)[C@H](C)CC[C@]5(C)CC[C@@]4(C)[C@]3(C)CC[C@@H]12 | cell growth or viability, MTT | 24 h | 128 µM |
| O=C1CS/C(=N\N=C\c2cccc3cc4ccccc4nc23)N1c1ccc(F)cc1 | cell growth or viability, MTT | 48 h | > 50 µM |
| CN1CCC(N[C@@H]2CCc3[nH]c4c(C(N)=O)ccc(-c5ccccc5Cl)c4c3C2)CC1 | cell proliferation | 96 h | 0.0183 µM |
| O=C1/C(=N\c2ccc(Cl)cc2)c2ccccc2N1Cc1ccccc1 | cell growth or viability, MTT | 48 h | 11.1 µM |
| Nc1ncc(-c2nc(N3CCOCC3)nc(N3CCN(C(=O)CCC(=O)NCCCCCCCCCCNc4cccc5c4C(=O)N(C4CCC(=O)NC4=O)C5=O)CC3)n2)c(C(F)F)n1 (stereo not drawn) | inhibitor, In-Cell Western, item: Akt pSer473 | 2 h | 0.042 µM |
| CNS(=O)(=O)Nc1nccc(Cc2c(C)c3ccc(Oc4ncccc4F)cc3oc2=O)c1F | cell viability | 7 days | > 1 µM |
| Nc1ncc(-c2nc(N3CCOCC3)nc(N3CCN(C(=O)CCC(=O)NCCCCCCCCNc4cccc5c4C(=O)N(C4CCC(=O)NC4=O)C5=O)CC3)n2)c(C(F)F)n1 (stereo not drawn) | inhibitor, In-Cell Western, item: Akt pSer473 | 2 h | 0.0323 µM |
| CC(C)(C)OC(=O)N1CCN(CC(OCc2ccc(Cl)cc2)c2ccc(Cl)cc2Cl)CC1 (stereo not drawn) | cell growth or viability, MTT | 24 h | 26.3 µM |
| O=[N+]([O-])c1ccc(C=NNC(=S)Nc2ccccc2)o1 | cell growth or viability, resazurin |  | > 100 µM |
| Cc1nc(Nc2ccc3c(c2)/C(=C/c2cn(C)c4ccccc24)C(=O)N3C)c2ccccc2n1 | cell growth or viability, MTT |  | 0.69 µM |
| COc1cc(-c2cc(=O)c3ccc(OCCCn4c(Cl)nc5ccccc54)cc3o2)cc(OC)c1OC | cell growth or viability, MTT | 48 h | 166 µM |
| CCC(=CCc1c(O)cc2c(c1O)C(=O)CC(c1ccccc1O)O2)CC (stereo not drawn) | cytotoxicity, MTT | 48 h, as reported | 70.5 ± 8.2 µM |
| Cc1ccc2c(Br)cc(Br)c([O-])c2n1.Cc1ccc2c(Br)cc(Br)c([O-])c2n1.[Co+2].c1cnc2c(c1)ccc1cccnc12 | cell growth or viability, MTT | 48 h | 10 µM |
| O=[N+]([O-])c1ccc(O)c(/C=N/Nc2ccccc2)c1 | cell growth or viability, MTT | 24 h | 14.5 µM |

Excerpt of the above:
| SMILES | test | setting | IC50 |
| --- | --- | --- | --- |
| Clc1ccc(COC(Cn2cncn2)c2ccc(Cl)cc2Cl)cc1 (stereo not drawn) | cell growth or viability, MTT | 24 h | 45.6 µM |
| O=C(CCc1ccccc1)N1C(=O)C2(NC(c3ccc(F)cc3)C3(C(=O)Nc4ccccc43)N2Cc2ccc(F)cc2)c2ccccc21 (stereo not drawn) | cell growth or viability, MTT | 48 h | 31.7 µM |
